Results pooled from the literature.
Protocols differ between the studies behind these lines.
Target: Mitogen-activated protein kinase 8 (MAPK8, Homo sapiens, UniProt P45983)
Chain of UniProt P45983 (whole entry, looked up): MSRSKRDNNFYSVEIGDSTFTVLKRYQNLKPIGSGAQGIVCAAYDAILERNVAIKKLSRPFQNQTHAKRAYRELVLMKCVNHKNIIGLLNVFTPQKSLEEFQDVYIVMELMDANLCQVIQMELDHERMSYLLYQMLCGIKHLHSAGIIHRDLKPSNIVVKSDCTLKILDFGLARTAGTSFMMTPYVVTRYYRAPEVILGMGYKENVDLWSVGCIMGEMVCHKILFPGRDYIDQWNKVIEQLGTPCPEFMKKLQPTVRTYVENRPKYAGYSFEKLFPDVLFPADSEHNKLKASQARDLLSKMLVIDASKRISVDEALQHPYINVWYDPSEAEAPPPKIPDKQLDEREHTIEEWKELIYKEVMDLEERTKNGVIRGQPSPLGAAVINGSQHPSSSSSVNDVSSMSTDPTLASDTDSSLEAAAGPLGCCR

| SMILES | test | conditions | scale | endpoint | value |
| --- | --- | --- | --- | --- | --- |
| COc1cc(F)ccc1-c1ncnc(Nc2cccc(C[S@](C)(=N)=O)c2)n1 | kinase activity | 10 µM, added: 10 µM ATP |  | remaining activity | 90% |
| C[C@@H](c1ccc(-n2cnc3c(N)ncnc32)cc1)N1CCc2nn(C)c(Cc3ccccc3)c2C1=O | KINOMEscan | 0.1 µM | baseline: DMSO control | remaining binding | 50% |
| O=C(Nc1nnc(-c2ccncc2)s1)C(F)(F)Cl | binding, isothermal titration calorimetry |  |  | ligand efficiency | 0.37 |
| Cc1nc(NC(=O)N2CCC[C@H]2C(N)=O)sc1-c1ccnc(C(C)(C)C(F)(F)F)c1 | KINOMEscan | 10 µM |  | remaining binding | 55% |
| O=C1NC(=O)/C(=C/c2ccc(-c3ccc(F)cc3O)o2)S1 | enzyme activity | 10 µM |  | remaining activity | 99% |
| Cc1cc(-c2cccc(-n3cc(COC(=O)[C@]4(C)C=C(C(=O)OC(C)(C)C)C(=O)CC4)nn3)c2)c(C)c2c1CNCC2 | D-peptide binding, inhibitor, FP peptide displacement | 1.562 µM | lower is stronger displacement | fraction bound | 0.803 |
| O=C(Nc1nnc(-c2ccncc2)s1)C(F)(F)I | binding, isothermal titration calorimetry |  |  | ligand efficiency | 0.39 |
| C=CC(=O)N1CCC(COCC(=O)N2CCN(c3nc(-c4cnc(N)nc4C(F)F)nc(N4CCOC[C@@H]4C)n3)CC2)CC1 | KINOMEscan | 1 µM | baseline: DMSO control | remaining binding | 93% |
| CCCOc1ccc(OC)c(F)c1C(=O)c1ccc(C(=O)N[C@@H]2CNC[C@H]2NC(=O)c2ccc3[nH]ncc3c2)cc1 | enzyme activity | 10 µM |  | remaining activity | 97% |
| C1=C/COCc2cc(ccc2OCCN2CCCC2)Nc2nccc(n2)-c2cccc(c2)COC/1 |  | concentration not given, kinase construct JNK1 | baseline: control | binding | 12% |
| O=C(Nc1nnc(-c2ccncc2)s1)C(F)(F)Br | binding, isothermal titration calorimetry |  |  | association constant | 71800 M⁻¹ |
| Cc1cc(NC(=O)c2cccc(NC(=O)/C=C/CN(C)C)c2)ccc1Nc1nccc(-c2cccnc2)n1 | enzyme activity, inhibitor | 2.79e-05 µM, 0 h, unit not given, added: GSH 10 mM pre-incubation | baseline: vehicle | remaining activity | 1.03 |
| C#CCCOC(=O)[C@]1(C)C=C(C(=O)OC(C)(C)C)C(=O)CC1 | D-peptide binding, inhibitor, FP peptide displacement | 50 µM | lower is stronger displacement | fraction bound | 0.125 |

Excerpt of the above:
| SMILES | test | conditions | scale | endpoint | value |
| --- | --- | --- | --- | --- | --- |
| O=C(Nc1nnc(-c2ccncc2)s1)C(F)(F)Br | binding, isothermal titration calorimetry |  |  | association constant | 71800 M⁻¹ |
| O=C(Nc1nnc(-c2ccncc2)s1)C(F)(F)I | binding, isothermal titration calorimetry |  |  | ligand efficiency | 0.39 |
